Experimental data gathered from unrelated publications.
A part holds a random share of what one study measured. Substitutions count along the parent as printed.

Series 1
Target: JDP2, bZIP domain (human)
Technique: DHFR protein complementation
Matrix: yeast
Setting: single substitutions, most at no-binding floor
Relative to: wild-type JUN-FOS pair
Direction: higher = stronger binding
Parent: JUN, bZIP domain (human); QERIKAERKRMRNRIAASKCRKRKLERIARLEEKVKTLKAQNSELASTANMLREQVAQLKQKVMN; partner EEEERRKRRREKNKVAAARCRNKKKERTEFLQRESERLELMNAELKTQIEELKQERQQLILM
Substitution	binding fitness
R53W	0.127 natural log
Q58S	0.353 natural log
E44C	0.241 natural log
E33L	0.268 natural log
S43I	0.258 natural log
R53S	0.218 natural log
E33G	0.251 natural log
A46Q	0.228 natural log
S47D	0.331 natural log
M51A	0.37 natural log
N42R	0.161 natural log
V35I	0.213 natural log
L52Y	0.21 natural log
L31H	0.1 natural log
I28T	0.23 natural log
N42L	0.114 natural log
S47K	0.307 natural log
A49D	-0.0218 natural log
R30P	0.365 natural log
L59P	-0.991 natural log
T48W	0.154 natural log

Series 2
Target: RING finger protein unkempt homolog, zinc fingers 1-6, SBP tag (UNK, Homo sapiens, UniProt Q9C0B0, residues 30-357)
UniProt Q9C0B0, sequence (30-357, looked up): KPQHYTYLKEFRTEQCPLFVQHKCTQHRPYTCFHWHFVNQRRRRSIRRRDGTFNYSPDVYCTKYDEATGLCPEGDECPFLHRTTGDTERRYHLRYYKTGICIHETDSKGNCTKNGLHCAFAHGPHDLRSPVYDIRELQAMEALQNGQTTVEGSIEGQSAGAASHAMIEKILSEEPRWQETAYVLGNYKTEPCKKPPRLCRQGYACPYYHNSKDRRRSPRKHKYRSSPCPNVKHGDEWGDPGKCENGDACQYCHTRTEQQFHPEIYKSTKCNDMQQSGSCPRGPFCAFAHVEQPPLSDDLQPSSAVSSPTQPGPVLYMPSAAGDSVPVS
Technique: RNA Bind-n-Seq
Form: RNA
Matrix: in vitro
Concentration: 100 nM
Setting: RNA with constant flanks, vertebrate orthologous sites, ends assumed
Relative to: input RNA pool
Direction: higher = stronger binding
Constant ends, left off below: GGGAGUUCUACAGUCCGACGAUC … CAACAGAGGAUUGAGCAUCA
Strand	bound/input enrichment [ratio]
UGUCUGCCUCAUUCUAAAAUUUACACAGUAGACCAUUUGUCAUCCAUGCUGUCCCACAAAUAGUUUUUUGUUUACGAUUUAUGACAGGUUUAUGUUACUUCUAUUUGAAUUUCUGUAUUU	1.32
CACCUCCUGAUCUUCUAGCUUUCAAGUUGUGGCUGUUUUCGAUACUGGUUUUCUUUCCUUUAGAAUUUCCCCCCCGUUGUUGUCCACCUUCUCUAUCCCUGUUGCCAAGGUUGACUCAUG	0.955
ACGCAUUUUGCAACUUGGAUGUGGUCUGCACAGGAAGCUGCUGGCCCCUCCACAACAACACAGAAAAUGUUUGUCUUUUUUUUUUGAGGAUGCUAAAACUGAAUUGAAUUUACUAAAAAU	0.301
CUGUAUGGCCCUCGCAGAGUUGAAAUAAUGGAAGAGGAAAGUGAAUAGUAAUCUUCAUUCUAGUAUUUAUGCUUAGGUGUGAAAUAAAUGUUAUUUGUUGAUCAUUUCUAUAACCCAGAG	0.371
GGCCCCAUCCUCGCCGAGAGGGUGGGCUCCACCAGGGGCGCUAGGCGUACAACCUUGGCAGGGUAGGACCUUGGCAGGGUAGCUGGGCUCGUGGGUUUAUAAUUUAAAGACGUUGCGACU	0.314
AUCCUUUCACACUGUCCCCGGCCAGGGUCGAGGACCAGAUGUUUCACCAAGGACCUGCAUUUCAAACAAUUUUUUUAAAUUGUUAUACAGGAAGAGAUGUGCUGAAAACAGCAUCUCAAA	0.206
GGGUGGCUGGUGGGGGAAUCCCAUGCCCUGGCCUUGCCUCCCCUCCUUGCCACCCGCUCCUAGUUAUUUUUUUUUUUAACCACCAUGUGAUUAAGGUCGGCGCUGCCUCCCCCCGACCCA	4.8
AAGGUUUUUUUUUUAAUUUAAUUUUUUUUCCUUUUGGGGGUAAAAGUUUGCUCUAUCAAAUAGUGAUCGUAAGCAAUUGAUCUGUUUUGGUUGUUGCUAUAGUGACAUGCAGUUCUAUAU	0.683
AUUCAAACCCGUGGUGCCAUGGCCUCAUGUGGAAGGAGUAGAAGUGGACUUAGAGUCUAUUAGAAGAAAAAACAAGGCCAAAAAUGAUCACGAGCACCAUGCUGGAGGAGAUUCCCAAAA	0.407
CAUGUCCUUGUUACUGUGAUACUUAAAAUAUCCACAGUACUCACUUUUUCCAAAUGAUUCUAGUAAUUGCCUAGACAUACCUUUCUCUUACCUGUUAUUUAUCAAUUUUUCCAGUAUUUU	1.33
UUGUGGUUUCUAUUGUUUUCUCUUUAAUAUUUCAUGUACUAAACCUUAGAUAUACCAGUCUAUAGUUUUUGAUGGAAUUGGUAUAUUGACAGUUCUCAGCCAAGGAAUUGUUUCUCUGGA	0.504

Series 3
Target: ABI1, truncated, D143A, DHFR fusion (Arabidopsis thaliana)
Technique: DHFR PCA, deep sequencing
Matrix: yeast
Setting: methotrexate growth selection, single substitutions
Together with: (+)-ABA 1.4 µM
Relative to: wild-type fitted maximum
Direction: higher = stronger binding
Parent: PYL1, truncated, DHFR fusion (Arabidopsis thaliana); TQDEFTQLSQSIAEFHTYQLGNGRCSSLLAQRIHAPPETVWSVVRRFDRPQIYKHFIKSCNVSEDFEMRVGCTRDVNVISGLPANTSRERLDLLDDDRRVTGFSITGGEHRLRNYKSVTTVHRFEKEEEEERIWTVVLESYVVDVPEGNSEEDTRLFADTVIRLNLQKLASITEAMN; partner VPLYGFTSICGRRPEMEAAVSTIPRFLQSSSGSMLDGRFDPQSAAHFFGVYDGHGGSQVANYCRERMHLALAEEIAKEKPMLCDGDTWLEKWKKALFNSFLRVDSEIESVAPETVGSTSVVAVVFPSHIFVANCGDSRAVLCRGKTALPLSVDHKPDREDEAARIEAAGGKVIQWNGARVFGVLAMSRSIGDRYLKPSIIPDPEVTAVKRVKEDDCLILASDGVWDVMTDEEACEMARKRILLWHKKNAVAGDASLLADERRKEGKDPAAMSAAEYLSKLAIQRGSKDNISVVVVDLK
Substitution	relative binding score [%]
Q51R	2.56
G108I	-8.55
A175P	14.4
T39C	42.7
P37V	36.3
R113Q	74.4
G21C	37.7
E4V	72.6
R69K	79.8
P37W	-7.82
E130C	52.6
K168R	51.6
K54E	-3.21
P50H	-28.7
V100F	-11.5
Q10G	60.9
N165K	9.32
F157C	2.97
V70E	31.4
P37E	7.13
A13F	11.5
N165Q	10.7
T154M	7.41
P36A	42.9
G23V	19.3

Series 4
Target: RNA binding protein fox-1 homolog 2, RRM domain, GST-SBP tag (RBFOX2, Homo sapiens, UniProt O43251-10, residues 100-194)
Technique: RNA Bind-n-Seq
Form: RNA
Matrix: in vitro
Concentration: 365 nM
Setting: natural RNA segment, single round, ends assumed
Relative to: no-protein control
Direction: higher = stronger binding
Constant ends, left off below: GGGAGUUCUACAGUCCGACGAUC … UGGAAUUCUCGGGUGCCAA
Target sequence (chain): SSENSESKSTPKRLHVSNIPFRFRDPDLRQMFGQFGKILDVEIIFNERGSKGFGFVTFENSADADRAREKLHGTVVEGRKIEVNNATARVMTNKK
Strand	RBNS enrichment (R)
GCUUACUGGAGAUGCACAGAGAAACAUGGCUGAAAACAGCUUUAAAAAGAACAUGUCUUUGGGUUCAUGUGUGGUGCUGCUGCCCGGGUGUAAACUAUCCCCACCCAGGG	0.42
CCAGCAGUCAAGUGCAUUCUCCAGUCCUUGCAAGAAGGAUCAGCCCUUUCUGUGCCAGCCUCGAUCGCCUUGUGCUUUGGUCUCUUUUUCUCCCCCCCGCCUGGAUCCUG	0.469
GCUGGGCUACGCGGUGAGGCCCUGUCUCACAGAGGCAGGGAGAGUGUUUUACUGGAAAAGCUGCAGUUGAUCUCAAAUUGAGCAGCGAGCUUUCAUGCUCAGUUGGAAUC	0.313
AGAAAUUGAAUCUUGAUCAAUAUUUAAACCAAAGGGAAAAGGGAAAACCAAAACCAAACCAAAGUUCUUUGUUUUGCCUGGUUACGACAUUCAGUUUAUCUGUGUAAAUA	0.369
UACUUUCCCAAGUUCCUCACGAGGGUUGCAUAUGCUUUAGAGGGUCCACAAUGCUUUUGUUGUCUUGUCCUGCUUCUCUAGUCCAGGGGAGACCAAAAGCUCAUACUCCU	0.531
CUGCAGCCCCACUUCUGUUUCCCUGGAGUCUCCCAAUGGAUCAUUCAGGAGUGUCCUAUGUGAGAAUUGAGCCAAGGAAAAUACUCAUGCAACCAGCCUGAGUCGCGGUG	0.68
UGAGAGAGUGGCAUUGGCAGCAGGUGCUGCUACCCUCCCUGCUGUCCCCUCUUGCCCCAACCCCCAGCACCCGGGCUCAGGGACCACAGCAAGGCACCUGCAGGUUGGGC	0.34
GUAAUGAUAGAGAAAAAACAAGGAAAACUAUUUAAUGAAAGCACGAUAUUUAUCUUUGGUAAAUGACUUUAGAGCAGUUAAAGACAUUGCUUAAAAACUCAGAAUCAGAA	1.73
CCACGUUUUGCCUUUCUCCUGCCCCAAAUCAGGCAGCUCCCUUGGAGCAGGGUUUCCUCAGAUGAGGACUGCAUUCUUUGAAAACAAAGAAUGUCGCCAAGGAAGAAACC	0.25
AAGAGCCCGUCUGCACCCCAGACCCAGGGCCUCAGGCCUCCAGCUCCUGGGAUCCGGGAGUCCAUCCCGGCCCAGCACCCCCAGCAUCCCCGUGUAUGGCCCCCCUGCAC	3.15
CUAUGUCAGAAGCAGCAGGCUUUGCUUCAGCUUGAGUUGGAGCCGUGUGAGUCUCAGGCCAGGCCCUUAUUUCUGAAUGUGUUUGAAUUUUAAGUUUGCCUUAUCAGAUA	1.6
UACUUACAACUCUGGUAAGCCUAGCUUCUCCGCCUCAGCCCUUCUGCUUCUGGAAGGGCUAUCCUGGGGGUGAACUUGAAACUCUCAUCAGGCUUCUGCAAAAGCUCUUC	0.218

Series 5
Target: Histone acetyltransferase KAT6A, winged helix 1, GST fusion (KAT6A, Homo sapiens, UniProt Q92794, residues 1-85)
Technique: protein binding microarray
Form: double-stranded DNA, one strand shown
Matrix: in vitro
Concentration: not given
Setting: 8-mer, flanks averaged, mean of 2 arrays, mostly near background
Relative to: not given
Direction: higher = stronger binding
Residues (chain): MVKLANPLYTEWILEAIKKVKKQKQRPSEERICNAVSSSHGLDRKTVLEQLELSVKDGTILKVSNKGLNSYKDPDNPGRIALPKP
Strand	E-score
CTTCGCGC	0.245
TCCTGGCA	-0.134
GCAGGTCA	-0.055
GCTGGTTA	-0.233
ATACCAAT	-0.0726
AGTTCAGA	-0.155
AAGATGAA	-0.144
ACAAAGAC	-0.181
AAAGGCCA	-0.0837
AGGGCACA	-0.228
CTGGGCGC	0.0599
CGCAGCCA	0.0248
ATACTTTA	-0.196
GAACACTA	-0.00798
CCTAGATA	-0.187
AGTGGACG	-0.0225
CCTACGCA	0.0398
ACGTTAGA	-0.0971
AGCGAACG	0.154
AATCAGAG	-0.137

Series 6
Target: CCND1, cyclin fold, Cln2 fusion (human)
Technique: yeast growth competition, sequencing
Matrix: yeast
Setting: weak parent motif
Relative to: not given
Direction: higher = stronger binding
Parent: CDC6 docking peptide (human); TLKGRRLVFDNQL
Substitution	normalised enrichment score
TLKGRELVFDNQL [R6E]	0.0508
TLKWRRLVFDNQL [G4W]	0.0196
TLKGRRLVHDNQL [F9H]	-0.136
DLKGRRLVFDNQL [T1D]	-0.411
TLKGRRMVFDNQL [L7M]	0.106
TLKGRILVFDNQL [R6I]	0.943
TLKGRRLVFDVQL [N11V]	0.428
TLKGRRLVTDNQL [F9T]	-0.177
TLKGRRLIFDNQL [V8I]	0.361
TLKGRRIVFDNQL [L7I]	0.505
TLKGTRLVFDNQL [R5T]	0.555
ALKGRRLVFDNQL [T1A]	0.419
TEKGRRLVFDNQL [L2E]	0.578
TLKGRRPVFDNQL [L7P]	0.0347
TLKGRRLVFDCQL [N11C]	0.757
TLKERRLVFDNQL [G4E]	-0.0707
TLKGRRLVFDNQM [L13M]	0.024
TLKGRRDVFDNQL [L7D]	0.185
TLKGRRLVFDWQL [N11W]	0.939
PLKGRRLVFDNQL [T1P]	0.668
TLNGRRLVFDNQL [K3N]	0.354
TLKGRRLVFDIQL [N11I]	0.48
THKGRRLVFDNQL [L2H]	0.0286
TLKGRRLVFDLQL [N11L]	0.372
TLKGRYLVFDNQL [R6Y]	0.464

Repeated from above (series 6):
Substitution	normalised enrichment score
TLKGRRLVHDNQL [F9H]	-0.136
DLKGRRLVFDNQL [T1D]	-0.411
TLKGRRMVFDNQL [L7M]	0.106
TLKGRILVFDNQL [R6I]	0.943
TLKGRRLVFDVQL [N11V]	0.428
TLKGRRLVTDNQL [F9T]	-0.177
TLKGRRLIFDNQL [V8I]	0.361
TLKGRRIVFDNQL [L7I]	0.505
TLKGTRLVFDNQL [R5T]	0.555
ALKGRRLVFDNQL [T1A]	0.419
TEKGRRLVFDNQL [L2E]	0.578
TLKGRRPVFDNQL [L7P]	0.0347
